Measured values of several laboratories.
Parts stem from different laboratories: compare values within a part only. Substitutions count along the parent as printed.

Sample 1
Target: Phosphate system positive regulatory protein PHO4, full length, GST-tagged (PHO4, Saccharomyces cerevisiae, UniProt P07270, residues 1-312)
Technique: competition protein-binding microarray
Form: double-stranded DNA, one strand shown
Medium: in vitro
Concentration: 2 µM
Setting: whole 60-bp probe, lowest competitor level
Together with: Cbf1 competitor, 0.05 µM
Reading: higher = stronger binding
Endpoint: fluorescence intensity
Shared flanks, not repeated: … GTCTTGATTCGCTTGACGCTGCTG
Residues (chain): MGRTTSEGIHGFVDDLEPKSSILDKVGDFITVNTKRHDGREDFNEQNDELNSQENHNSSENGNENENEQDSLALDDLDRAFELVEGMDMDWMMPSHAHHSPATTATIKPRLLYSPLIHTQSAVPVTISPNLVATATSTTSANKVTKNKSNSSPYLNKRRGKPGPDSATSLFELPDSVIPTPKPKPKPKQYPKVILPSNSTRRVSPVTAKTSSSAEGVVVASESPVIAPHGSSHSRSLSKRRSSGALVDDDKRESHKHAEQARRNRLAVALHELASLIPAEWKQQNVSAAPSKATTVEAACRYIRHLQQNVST
CCGGTCAAGGTCTGGCACGTGGAGTCCAGGACATCC: 19300 a.u.
CACACCGTACTTGAGCACATGTCTGGATTGCTAGCT: 14700 a.u.
CATACCCAACCTTGGCCAGTGGGTGAAGATATTTGT: 3440 a.u.
AGTATATCTGATCCGCACGTGATGGCCACTTAATCG: 15900 a.u.
CTTCTGTAAATTTGATATGTGGGTGGACGCGCCCCG: 5030 a.u.
CTAACGAAGGTTTTTCACGTGGAGTACAAGCCAAGT: 12900 a.u.
GCCTCCATATTACTCACCGTGCCAGACCCATTGTCG: 6790 a.u.
AAGCAACAACACCGACCCGTGCCAGCGACATCTGCT: 11600 a.u.
CTTTCCCGATCTTGGAAAGTGGGTGTAGCACATTTG: 4170 a.u.
TACAAGACTCCGAGTCACATGAAACCACACCTTCGG: 4960 a.u.
GAGAAACTATTACAGCACGTGAAATCCTTGCCTATG: 13900 a.u.
CGGGGTTAAGTTTGCGCAGTGGGTGGCTTGCAGCAG: 4900 a.u.
CAACATCAGCGCTGTCATGCGGTCTTTGAAATTCCT: 6030 a.u.
ATGCAATTTTTTCACCACGTGCTAATTCTCTTTGTT: 21500 a.u.
TCCTGTATTTTAAAGCACGCAAGGCTGAAATAAACG: 8290 a.u.
GTCTTGTCTCATTGGGTTGTGGGTGTCCCCACTTCA: 5240 a.u.
CGGAAGGGAGATCCGCACGTGACGGTTGAAAAAGGG: 14800 a.u.

Sample 2
Target: CCND1, cyclin fold, Cln2 fusion (human)
Technique: yeast growth competition, sequencing
Medium: yeast
Setting: strong parent motif
Reference: not given
Reading: higher = stronger binding
Endpoint: normalised enrichment score
Parent: RBL2 docking peptide (human); STTRRRLFVENDS
RTTRRRLFVENDS [S1R]: 0.958
STFRRRLFVENDS [T3F]: -0.45
STTERRLFVENDS [R4E]: 0.681
STTTRRLFVENDS [R4T]: 0.661
STTRKRLFVENDS [R5K]: 0.437
STTRRRLFEENDS [V9E]: 1.19
STTRRRLFVEADS [N11A]: 0.358
STTRRRLFVEIDS [N11I]: -0.0245
STTRRRLFVCNDS [E10C]: 0.0243
STTRRRLFCENDS [V9C]: 1.47
STTRRRLFVENMS [D12M]: 0.419
STVRRRLFVENDS [T3V]: 1.46
STTRRMLFVENDS [R6M]: 0.742
STSRRRLFVENDS [T3S]: -0.0517
STTRRRLFVGNDS [E10G]: -0.0223
STTRWRLFVENDS [R5W]: 0.0646
STTRARAFVENDS [R5A L7A]: 0.0378
STTRRRLFVENDG [S13G]: 1.36
STTRRRLFVENDK [S13K]: 0.511
STTRRRLFVRNDS [E10R]: -0.00108
STTRRRTFVENDS [L7T]: -0.0554
STTRRRLFVENGS [D12G]: 0.234
STTRRRLFWENDS [V9W]: 1.44
STTRRRAFVENDS [L7A]: 0.586
STTRRRLAVENDS [F8A]: -0.214

Sample 3
Target: ABI1, truncated, D143A, DHFR fusion (Arabidopsis thaliana)
Technique: DHFR PCA, deep sequencing
Medium: yeast
Setting: methotrexate growth selection, single substitutions
Together with: (+)-ABA 0.11 µM
Reference: wild-type fitted maximum
Reading: higher = stronger binding
Endpoint: relative binding score
Parent: PYL1, truncated, DHFR fusion (Arabidopsis thaliana); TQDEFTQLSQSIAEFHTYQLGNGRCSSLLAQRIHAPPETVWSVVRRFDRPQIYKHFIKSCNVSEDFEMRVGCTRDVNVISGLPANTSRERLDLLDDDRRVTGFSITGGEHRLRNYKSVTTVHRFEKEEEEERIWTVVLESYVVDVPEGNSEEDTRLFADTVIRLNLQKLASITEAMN; partner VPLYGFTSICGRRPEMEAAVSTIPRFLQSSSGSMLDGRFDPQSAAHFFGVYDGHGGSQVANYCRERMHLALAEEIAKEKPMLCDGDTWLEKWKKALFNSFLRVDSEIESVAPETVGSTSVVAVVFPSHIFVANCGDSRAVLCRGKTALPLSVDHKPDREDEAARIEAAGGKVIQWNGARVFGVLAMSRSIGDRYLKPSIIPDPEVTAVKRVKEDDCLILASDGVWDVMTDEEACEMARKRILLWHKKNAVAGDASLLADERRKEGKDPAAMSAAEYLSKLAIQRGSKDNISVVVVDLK
T86P: 3.91%
L112D: 1.95%
V161A: 6.78%
S80D: 4.63%
V142K: -8.65%
S42P: -5.7%
T101C: 20.7%
G102F: -5.61%
G108Y: 3.49%
S171H: 40.4%
G23W: -1.45%
P146Y: -3.97%
D96C: -3.19%
S63H: 15.8%
I162Y: 1.15%

Sample 4
Target: Histone acetyltransferase KAT6A, winged helix 1, GST fusion (KAT6A, Homo sapiens, UniProt Q92794, residues 1-85)
Technique: protein binding microarray
Form: double-stranded DNA, one strand shown
Medium: in vitro
Concentration: not given
Setting: 8-mer, flanks averaged, mean of 2 arrays, mostly near background
Reference: not given
Reading: higher = stronger binding
Endpoint: E-score
Construct (chain): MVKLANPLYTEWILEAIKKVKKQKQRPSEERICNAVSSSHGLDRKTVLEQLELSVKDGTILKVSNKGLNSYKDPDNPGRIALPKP
AGGCTCAT: -0.171
AGGTTAGA: -0.0692
TGCGCACA: 0.316
TGGAGGAA: -0.122
ATGTTGCC: 0.0568
CTAGACCC: -0.0368
GACAGGTC: -0.0715
ATAGGGGA: -0.136
ACACTCCA: -0.104
CATGGTAC: 0.0508
ACTATTCG: -0.155
AACGGTAG: 0.0593
CATAGACA: -0.107
CTAGAAAG: 0.0728
GACTAGAC: -0.11
GATGTAGA: -0.0315
CCACGACG: 0.162
CCCCCCAA: -0.167
CCCCTCCG: -0.0271
AGCACAGG: -0.0969
CAAGGAGC: -0.0712
AATCCTCC: -0.114
GGGGCGAA: 0.0506
ACTTGCCA: -0.172
ATATATCA: -0.199

Sample 5
Target: RNA binding protein fox-1 homolog 2, RRM domain, GST-SBP tag (RBFOX2, Homo sapiens, UniProt O43251-10, residues 100-194)
Technique: RNA Bind-n-Seq
Form: RNA
Medium: in vitro
Concentration: 365 nM
Setting: natural RNA segment, single round, ends assumed
Reference: no-protein control
Reading: higher = stronger binding
Endpoint: RBNS enrichment (R)
Shared flanks, not repeated: GGGAGUUCUACAGUCCGACGAUC … UGGAAUUCUCGGGUGCCAA
Construct (chain): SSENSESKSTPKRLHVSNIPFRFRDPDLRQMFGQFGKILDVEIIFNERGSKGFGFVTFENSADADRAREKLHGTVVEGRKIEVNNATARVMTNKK
AAAGAAAUUCUGUUAAUGUUAAUUAAAGUAAAAUUAUUCCCUGAAUUGUUUGAUAUUGUCACCUAGCAGAUAUGUAUUACUUUUCUGCAAUGUUAUUAUUGGCUUGCACU: 0.814
ACAUAAAACAUAUGAGGAAUCUGCAAGGAACACUACAGUUGUGUAAAGUUGUUCUGUUAACUUUUGUACCAAAUAGCAAUACAAACUAGUUGGAACAGUUGGAACUUACA: 0.223
UUCUAACUUUGGCAACAUCAGAACUUGCCACAUGUAGCUACUGCAGCAAGGCUUCUGUGUACUUGCCUGAAAACAAAGGAAGGUGCUGGUCAUUCCAUUUCUUUUGUUUG: 0.228
UCAAGGGCAGCCAGCAGGCCUGGAUGGAGGCCUAGAAAGCCCUUGCCUUCCUUCCUCCCACUUCUUUCUCCAGGCCUGGUUAACUCUUCCGUUGUCAGCUUCUCCCCCUU: 0.785
GGUCACUCGCAACCUGAGUUCACCACAGCGGGAAUAGCUGUGAGAAACACAAGCAAAACAACAAAAUUAAUAAUCUGACGGAGGGGAAUUCUAGAAUUAUAUGCUAAAUG: 0.63
CUGUGGCCCAGCUCCGAGAGUGAUAUUUGCUCUGGUAGGUGAGGGCCUGAGGGUACAUUUCUCCACCUGUGCCCCCUCAUGUUCACAGAGGAUUUCAGCAGCUGCAACUG: 0.593
UACCUUCCAGUGCAAAUCCUGCUCCUUUGAUUUAAUGGGGUGUACUGGGGCCAGGGGCUGAUUCACUUCCUUGGGAGAUGGUGGUGUUUUCAUGAACAUCUUUGAUCCUU: 0.307
CCCUGCAAGGCCCACACUCACGCCCUGUGGGUGAUGGUCACGGUGGGUGGGUGGGGGCUGACCCCAGCUUCCAGGGGACUGUCACUGUGGACGCCAAAAUGGCAUAACUG: 0.642
CGCUAUCUAAAGGGAACCCCCAUUUCUGACCCAUUAGUAGUCUUGAAUGUGGGGCUCUGAGAUAAAGGCCCGCAGACAGGGACAAGGGAUGCCCUACCCUUAACCUAGGC: 0.241
AUGUAUUCUUCAGUUUUCCCACUUCUCAGUGUCUUCACUCUAAGGACUUUUCCUGUCACUGUGAACUUUGCUGGUUAUCUGCCUUCAAUUUUUGGACCACAAACCACCCU: 0.25
GUGGGACUGGCACUAUUUGAGGUUAAGACAAACUGCAUAUGUACUUCAAUUGCUUUGCACUUUUCCGUUUCAGCGGAAGACCUGAAGAGUGGUCAGAACAGAGCCUUUGA: 0.403
UGGGCCACCGCUGACUGUGCUCCCCACUACCCCUGAGGAAGAUGGGGGCAAGAAGACCAUGUUCCCUGCCUGUUCCCCCAGCUGCUUCUCCCAUCUUUUCUCUCUGUUCU: 1.88

Mixed results
PhoQ, residues 284 288 289 292 302 303 AMDMFI
fold induction (PhoP, residues 12 14 15 18 19 NMSSL (Escherichia coli, UniProt P23836); Sort-seq, refers to: YFP reporter; E. coli; PhoQ-PhoP variant library, together with: 10 µM Mg2+; reference: high Mg2+ state, higher = stronger signaling): 2.68

A few entries again (sample 5):
CGCUAUCUAAAGGGAACCCCCAUUUCUGACCCAUUAGUAGUCUUGAAUGUGGGGCUCUGAGAUAAAGGCCCGCAGACAGGGACAAGGGAUGCCCUACCCUUAACCUAGGC: 0.241
UUCUAACUUUGGCAACAUCAGAACUUGCCACAUGUAGCUACUGCAGCAAGGCUUCUGUGUACUUGCCUGAAAACAAAGGAAGGUGCUGGUCAUUCCAUUUCUUUUGUUUG: 0.228
UCAAGGGCAGCCAGCAGGCCUGGAUGGAGGCCUAGAAAGCCCUUGCCUUCCUUCCUCCCACUUCUUUCUCCAGGCCUGGUUAACUCUUCCGUUGUCAGCUUCUCCCCCUU: 0.785
AAAGAAAUUCUGUUAAUGUUAAUUAAAGUAAAAUUAUUCCCUGAAUUGUUUGAUAUUGUCACCUAGCAGAUAUGUAUUACUUUUCUGCAAUGUUAUUAUUGGCUUGCACU: 0.814
GGUCACUCGCAACCUGAGUUCACCACAGCGGGAAUAGCUGUGAGAAACACAAGCAAAACAACAAAAUUAAUAAUCUGACGGAGGGGAAUUCUAGAAUUAUAUGCUAAAUG: 0.63
UACCUUCCAGUGCAAAUCCUGCUCCUUUGAUUUAAUGGGGUGUACUGGGGCCAGGGGCUGAUUCACUUCCUUGGGAGAUGGUGGUGUUUUCAUGAACAUCUUUGAUCCUU: 0.307
